# Assay results from different studies.
# Each numbered part is a random draw from the data of one study; scales do not carry over between parts. “And” joins repeats or separate records; there may be more than shown.
# Sequence of UniProt Q15759 (whole entry, looked up): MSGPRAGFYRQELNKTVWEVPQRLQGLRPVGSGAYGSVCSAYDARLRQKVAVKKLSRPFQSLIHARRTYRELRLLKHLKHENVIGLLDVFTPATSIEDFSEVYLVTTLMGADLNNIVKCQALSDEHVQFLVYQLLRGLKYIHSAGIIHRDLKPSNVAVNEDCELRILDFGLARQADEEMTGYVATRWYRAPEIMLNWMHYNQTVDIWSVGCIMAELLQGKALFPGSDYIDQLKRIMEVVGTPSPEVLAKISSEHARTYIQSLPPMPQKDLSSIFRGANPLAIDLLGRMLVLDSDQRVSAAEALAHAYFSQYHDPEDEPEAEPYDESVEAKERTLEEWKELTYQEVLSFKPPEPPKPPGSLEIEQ
# Sequence of UniProt P08631 (whole entry, looked up): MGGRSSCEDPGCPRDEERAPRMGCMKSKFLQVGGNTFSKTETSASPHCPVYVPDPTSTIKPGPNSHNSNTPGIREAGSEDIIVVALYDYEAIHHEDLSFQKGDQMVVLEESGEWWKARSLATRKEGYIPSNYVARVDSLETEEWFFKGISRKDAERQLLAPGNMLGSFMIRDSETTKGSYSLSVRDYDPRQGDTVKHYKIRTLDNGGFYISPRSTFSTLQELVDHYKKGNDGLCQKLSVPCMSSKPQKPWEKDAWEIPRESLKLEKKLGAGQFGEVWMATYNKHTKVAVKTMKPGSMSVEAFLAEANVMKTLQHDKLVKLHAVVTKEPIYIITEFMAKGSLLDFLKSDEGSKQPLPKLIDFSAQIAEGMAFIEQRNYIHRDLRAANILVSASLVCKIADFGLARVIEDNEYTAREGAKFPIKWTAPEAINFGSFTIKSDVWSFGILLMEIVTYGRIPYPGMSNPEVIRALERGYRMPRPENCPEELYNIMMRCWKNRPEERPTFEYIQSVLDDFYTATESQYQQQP
# Sequence of UniProt P45985 (whole entry, looked up): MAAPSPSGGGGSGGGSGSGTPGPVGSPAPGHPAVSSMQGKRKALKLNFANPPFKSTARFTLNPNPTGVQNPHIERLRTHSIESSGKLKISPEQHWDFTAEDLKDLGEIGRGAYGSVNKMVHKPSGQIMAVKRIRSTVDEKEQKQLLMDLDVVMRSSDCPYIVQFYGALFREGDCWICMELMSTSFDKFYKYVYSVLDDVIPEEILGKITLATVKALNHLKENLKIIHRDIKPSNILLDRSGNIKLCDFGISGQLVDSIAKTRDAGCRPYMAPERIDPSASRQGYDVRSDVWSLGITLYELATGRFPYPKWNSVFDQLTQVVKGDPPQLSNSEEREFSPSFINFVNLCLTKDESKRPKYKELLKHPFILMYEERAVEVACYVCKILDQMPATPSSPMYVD
# Sequence of UniProt P06493 (whole entry, looked up): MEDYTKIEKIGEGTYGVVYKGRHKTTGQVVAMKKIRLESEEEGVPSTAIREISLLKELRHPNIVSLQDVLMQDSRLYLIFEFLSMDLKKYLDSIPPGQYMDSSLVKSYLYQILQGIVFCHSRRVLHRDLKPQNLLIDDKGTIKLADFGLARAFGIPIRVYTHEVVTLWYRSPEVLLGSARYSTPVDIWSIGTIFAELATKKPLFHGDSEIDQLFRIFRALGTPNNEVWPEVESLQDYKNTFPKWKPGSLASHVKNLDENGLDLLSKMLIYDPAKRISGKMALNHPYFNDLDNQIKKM
# Sequence of UniProt P50750 (whole entry, looked up): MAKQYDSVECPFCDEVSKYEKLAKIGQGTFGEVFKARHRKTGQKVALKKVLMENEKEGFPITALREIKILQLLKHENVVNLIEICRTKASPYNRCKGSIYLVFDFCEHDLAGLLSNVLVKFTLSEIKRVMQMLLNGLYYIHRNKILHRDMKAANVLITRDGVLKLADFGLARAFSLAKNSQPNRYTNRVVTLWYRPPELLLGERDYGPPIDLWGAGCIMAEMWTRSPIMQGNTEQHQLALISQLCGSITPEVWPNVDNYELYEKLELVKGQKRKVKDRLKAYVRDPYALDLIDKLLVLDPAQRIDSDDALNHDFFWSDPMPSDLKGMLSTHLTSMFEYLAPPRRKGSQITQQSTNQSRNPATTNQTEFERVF

# Sample 1 — observed: enzyme activity; action: inhibitor; concentration: 10 µM
# Target: Calcium/calmodulin-dependent protein kinase type II subunit alpha (CAMK2A, Homo sapiens, UniProt Q9UQM7)
# Sequence of UniProt Q9UQM7 (whole entry, looked up): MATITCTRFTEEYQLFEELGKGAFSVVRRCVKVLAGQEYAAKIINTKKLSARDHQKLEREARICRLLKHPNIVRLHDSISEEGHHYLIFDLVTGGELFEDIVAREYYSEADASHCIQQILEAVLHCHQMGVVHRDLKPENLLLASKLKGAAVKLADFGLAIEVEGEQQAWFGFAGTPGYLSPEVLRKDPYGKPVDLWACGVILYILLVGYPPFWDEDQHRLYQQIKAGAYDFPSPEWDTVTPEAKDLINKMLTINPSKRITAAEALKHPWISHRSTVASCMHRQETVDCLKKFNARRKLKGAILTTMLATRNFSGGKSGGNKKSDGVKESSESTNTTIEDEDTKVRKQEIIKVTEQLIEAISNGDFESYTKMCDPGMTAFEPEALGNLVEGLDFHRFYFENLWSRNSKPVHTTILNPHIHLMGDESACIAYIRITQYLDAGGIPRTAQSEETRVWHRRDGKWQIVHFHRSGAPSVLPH
Compound,inhibition
CC(C)=CCC1=CC(=O)c2ccccc2C1=O,4%
C[C@@H]1N=C(N)NC(N(C)C)=N1,-7%
CC(C)=CCc1cc2c(cc1O)O[C@H](c1ccc(O)cc1)CC2=O,-9%
C[C@@H]1CN(c2c(F)c(N)c3c(=O)c(C(=O)O)cn(C4CC4)c3c2F)C[C@H](C)N1,-9%
CC(C)=CC(=O)O[C@H]1Cc2cc3ccc(=O)oc3cc2OC1(C)C,-27%
COc1cc2c(cc1OC)-c1cc3ccc4c(c3c[n+]1CC2)OCO4,-10%
Oc1ccc2c(c1)CC[C@H](c1ccccc1)[C@@H]2c1ccc(OCCN2CCCC2)cc1,6%
COc1c2ccoc2c(OC[C@H]2OC2(C)C)c2oc(=O)ccc12,-7%
CC[N+](CC)(CC)CCOc1cccc(OCC[N+](CC)(CC)CC)c1OCC[N+](CC)(CC)CC,-7%

# Sample 2 — observed: enzyme activity; action: inhibitor; concentration: 0.5 µM; relative to: control
# Structure (SMILES): C[C@@H]1CCN(C(=O)CC#N)C[C@@H]1N(C)c1ncnc2[nH]ccc12
target,remaining activity
"CAMK4 (Homo sapiens, UniProt Q16566)",96.3%
"PLK3 (Homo sapiens, UniProt Q9H4B4)",99.1%
"Myosin-IIIb (MYO3B, Homo sapiens, UniProt Q8WXR4)",89.3%
"MARK4 (Homo sapiens, UniProt Q96L34)",81.7%
"ROCK1 (Homo sapiens, UniProt Q13464)",90.1%
"CDC42BPB (Homo sapiens, UniProt Q9Y5S2)",95.4%
"Cyclin-dependent kinase 1, with cyclin A (CDK1, Homo sapiens, UniProt P06493)",95.9%
"PNCK (Homo sapiens, UniProt Q6P2M8)",104%
"Cyclin-dependent kinase 9, with cyclin K (CDK9, Homo sapiens, UniProt P50750)",102%
"CLK3 (Homo sapiens, UniProt P49761)",106%
"MAPK14 (Homo sapiens, UniProt Q16539)",93.4%
"DCLK2 (Homo sapiens, UniProt Q8N568)",96.6%
"GRK4 (Homo sapiens, UniProt P32298)",93.5%
"MAPK11 (Homo sapiens, UniProt Q15759)",103%

# Sample 3 — observed: cell-free assay; technique: competition with immobilised ligand; concentration: 1 µM
# Structure (SMILES): CN(C)C(=O)Cn1cc(-c2nc([C@@](C)(c3ccc(-c4cnc(N)nc4)cc3)C3CC3)no2)cn1
target,remaining binding [%]
"HCK (Homo sapiens, UniProt P08631)",79
"MAPK11 (Homo sapiens, UniProt Q15759)",97
"FLT3 (Homo sapiens, UniProt P36888, D835H)",86
"MAP2K4 (Homo sapiens, UniProt P45985)",100
"CDK17 (Homo sapiens, UniProt Q00537)",96

# Sample 4 — action: inhibitor; concentration: concentration not given; with: without ssDNA
# Target: DNA polymerase theta, helicase domain (POLQ, Homo sapiens, UniProt O75417)
# Sequence of UniProt O75417 (whole entry, looked up): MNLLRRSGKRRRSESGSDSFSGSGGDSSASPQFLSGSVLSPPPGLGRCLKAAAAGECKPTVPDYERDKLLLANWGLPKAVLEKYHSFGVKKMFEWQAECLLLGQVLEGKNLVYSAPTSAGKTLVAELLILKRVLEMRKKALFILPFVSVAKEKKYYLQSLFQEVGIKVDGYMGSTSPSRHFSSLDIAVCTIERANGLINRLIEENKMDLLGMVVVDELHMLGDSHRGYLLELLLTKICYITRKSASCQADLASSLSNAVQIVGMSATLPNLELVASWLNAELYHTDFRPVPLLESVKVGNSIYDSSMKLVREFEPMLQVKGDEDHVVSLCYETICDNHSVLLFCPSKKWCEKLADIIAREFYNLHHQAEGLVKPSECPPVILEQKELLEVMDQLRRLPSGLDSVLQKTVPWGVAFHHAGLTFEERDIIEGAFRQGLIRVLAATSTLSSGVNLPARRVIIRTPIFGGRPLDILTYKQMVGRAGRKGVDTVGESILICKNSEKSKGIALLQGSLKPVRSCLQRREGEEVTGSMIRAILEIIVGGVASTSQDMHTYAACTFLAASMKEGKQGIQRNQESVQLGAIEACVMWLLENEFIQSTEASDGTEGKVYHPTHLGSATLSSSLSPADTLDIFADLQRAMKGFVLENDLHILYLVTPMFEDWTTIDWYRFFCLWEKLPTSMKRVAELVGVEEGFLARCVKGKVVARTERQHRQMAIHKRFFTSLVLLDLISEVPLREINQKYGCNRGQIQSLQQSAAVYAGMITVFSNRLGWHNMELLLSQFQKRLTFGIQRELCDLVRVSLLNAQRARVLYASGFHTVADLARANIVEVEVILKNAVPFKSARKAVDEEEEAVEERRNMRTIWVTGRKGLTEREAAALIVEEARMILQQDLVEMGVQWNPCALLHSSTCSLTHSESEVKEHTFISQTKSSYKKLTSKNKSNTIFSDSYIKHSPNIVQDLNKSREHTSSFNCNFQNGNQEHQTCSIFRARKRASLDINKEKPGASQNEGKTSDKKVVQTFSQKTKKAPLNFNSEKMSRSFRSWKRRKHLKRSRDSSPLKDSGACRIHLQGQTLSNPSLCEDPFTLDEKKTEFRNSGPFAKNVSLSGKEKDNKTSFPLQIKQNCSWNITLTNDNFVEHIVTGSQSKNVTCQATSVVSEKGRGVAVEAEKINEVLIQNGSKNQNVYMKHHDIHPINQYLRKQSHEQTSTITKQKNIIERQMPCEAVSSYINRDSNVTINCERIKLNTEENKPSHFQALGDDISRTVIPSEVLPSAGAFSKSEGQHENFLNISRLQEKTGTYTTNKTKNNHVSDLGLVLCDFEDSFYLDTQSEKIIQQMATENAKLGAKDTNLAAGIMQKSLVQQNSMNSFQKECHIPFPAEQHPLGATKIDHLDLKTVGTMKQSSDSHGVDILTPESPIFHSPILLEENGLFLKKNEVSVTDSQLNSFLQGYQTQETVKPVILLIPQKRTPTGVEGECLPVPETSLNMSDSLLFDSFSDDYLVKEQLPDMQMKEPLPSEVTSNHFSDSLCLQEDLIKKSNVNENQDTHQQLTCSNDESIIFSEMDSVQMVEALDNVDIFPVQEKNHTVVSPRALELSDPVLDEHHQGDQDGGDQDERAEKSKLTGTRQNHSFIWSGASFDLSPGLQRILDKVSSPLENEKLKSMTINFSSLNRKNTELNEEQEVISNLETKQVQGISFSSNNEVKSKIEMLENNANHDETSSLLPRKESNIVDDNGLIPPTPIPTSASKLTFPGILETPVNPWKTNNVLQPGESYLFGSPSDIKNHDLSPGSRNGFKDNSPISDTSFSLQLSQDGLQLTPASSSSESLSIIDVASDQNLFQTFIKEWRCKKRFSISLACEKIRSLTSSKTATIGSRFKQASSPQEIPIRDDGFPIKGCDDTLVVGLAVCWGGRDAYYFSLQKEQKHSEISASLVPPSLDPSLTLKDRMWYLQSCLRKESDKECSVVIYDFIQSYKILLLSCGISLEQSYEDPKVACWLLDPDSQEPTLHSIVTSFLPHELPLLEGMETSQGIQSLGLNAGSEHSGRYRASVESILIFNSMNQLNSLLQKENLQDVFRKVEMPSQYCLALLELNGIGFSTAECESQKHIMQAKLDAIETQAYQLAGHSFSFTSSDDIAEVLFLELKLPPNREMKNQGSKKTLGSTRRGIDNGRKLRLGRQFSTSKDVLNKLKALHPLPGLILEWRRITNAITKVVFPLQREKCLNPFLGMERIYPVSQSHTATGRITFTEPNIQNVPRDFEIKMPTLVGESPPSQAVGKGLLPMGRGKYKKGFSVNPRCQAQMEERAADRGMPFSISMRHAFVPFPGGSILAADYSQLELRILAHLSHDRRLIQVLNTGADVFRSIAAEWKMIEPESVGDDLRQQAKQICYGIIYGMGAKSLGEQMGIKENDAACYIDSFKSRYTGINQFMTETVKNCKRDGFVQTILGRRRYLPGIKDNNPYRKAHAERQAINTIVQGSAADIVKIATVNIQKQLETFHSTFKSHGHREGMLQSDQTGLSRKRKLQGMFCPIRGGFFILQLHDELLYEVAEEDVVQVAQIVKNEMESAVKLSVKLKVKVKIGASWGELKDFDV
Compound,remaining activity
O=C(Nc1cc(-c2ccccc2)sc1C(=O)O)c1cccc(F)c1,40.7% and 38.9%
N#CSc1cc(SC#N)c(N)nc1N,88.5% and 94.4%
Cc1nc(N=Nc2cc(S(=O)(=O)O)c3cc([N+](=O)[O-])cc(S(=O)(=O)O)c3c2)c(COP(=O)(O)O)c(C=O)c1O,153% and 155%
CCC(C)(Oc1ccc(C2(c3ccc(OC(C)(CC)C(=O)O)cc3)CCCCC2)cc1)C(=O)O (stereo not shown),129% and 127%
COc1cccc(C2C3=C(NN/C3=C3/C=CC=CC3=O)C(=O)N2CCc2ccc(OC)c(OC)c2)c1 (stereo not shown),73.4% and 74.5%
O=C(Nc1cc2cc[nH]c2cn1)c1ccccc1,50.1% and 52.5%

# For quick reference, copied from above (sample 1):
Compound,inhibition
COc1cc2c(cc1OC)-c1cc3ccc4c(c3c[n+]1CC2)OCO4,-10%
Oc1ccc2c(c1)CC[C@H](c1ccccc1)[C@@H]2c1ccc(OCCN2CCCC2)cc1,6%
COc1c2ccoc2c(OC[C@H]2OC2(C)C)c2oc(=O)ccc12,-7%
CC[N+](CC)(CC)CCOc1cccc(OCC[N+](CC)(CC)CC)c1OCC[N+](CC)(CC)CC,-7%
